Published values of several laboratories.
Compare with care: the assays were run in different laboratories. Values joined by “and” are separate records of one study, mostly repeats; a detail may differ. ± marks the error that the study gave.
Rhomboid protease AarA: Rhomboid protease AarA (Providencia stuartii, UniProt P46116)
CASP1: Caspase-1 (CASP1, Homo sapiens, UniProt P29466)
ABL1 phosphorylated: Tyrosine-protein kinase ABL1, phosphorylated (ABL1, Homo sapiens, UniProt P00519)
T1: ssRNA, hairpin with 1x1 G/G internal loops (Homo sapiens); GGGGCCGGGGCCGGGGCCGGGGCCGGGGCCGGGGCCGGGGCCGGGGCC
T2: G-quadruplex RNA, G-quadruplex (Homo sapiens); GGGAGGGGCGGGUCUGGG

`O=C(CC(F)(F)F)Nc1ccccc1OCC1CC1`: IC50 “inactive” (Rhomboid protease AarA; enzyme activity, inhibitor, fluorogenic peptide substrate).
For `CC(C)[C@@H]1NC(=O)[C@H](Cc2ccccc2)NC(=O)CSC[C@@H](C(N)=O)NC(=O)[C@H](CCC(=O)O)NC(=O)[C@H](CO)NC(=O)[C@H](Cc2c[nH]c3cccc(Cl)c23)NC(=O)[C@H](C2CCCCC2)NC(=O)[C@H](C(C)C)NC(=O)[C@H](Cc2ccc(O)cc2)NC(=O)[C@H](CC(=O)O)NC(=O)[C@H](Cc2c[nH]c3ccccc23)NC(=O)[C@H](Cc2ccc(N)nc2)NC(=O)[C@H](Cc2c[nH]c3ccc(Cl)cc23)NC(=O)[C@H](CCC(=O)O)NC1=O`, the remaining activity was 2.78% (Interleukin-1 receptor-like 2 (IL1RL2, Homo sapiens, UniProt Q9HB29); IL-8 release, antagonist; A-431; 100 µM, 18 h, together with: IL-36 10 ng/mL; relative to: untreated).
For `CN(C)CCCSC(=S)N1CCN(C(=O)/C=C/c2coc3ccccc3c2=O)CC1`, “normalised MST response” read -0.0148 (Nucleoprotein (N, Tomato spotted wilt virus, UniProt P25999); binding, microscale thermophoresis; 0.1221 µM; dose series).
The specific binding of `O=C1c2sc(-c3ccc(N4CCC(F)C4)nc3F)nc2CCN1c1cccnc1` (stereo not shown) is reported as 0.904 nM and 1.17 nM (TAR DNA-binding protein 43, aggregated (TARDBP, Homo sapiens, UniProt Q13148); radioligand binding; human, FTLD-TDP type B extract; together with: radioligand 4.94 nM).
The kinact/KI of `CC(=O)N[C@@H](CC(=O)O)C(=O)N[C@H](C(=O)N[C@@H](C)C(=O)N[C@@H](CC(=O)O)C(=O)COC(=O)c1c(C)cccc1C)[C@@H](C)OCc1ccccc1` is reported as 39200 M⁻¹ s⁻¹ (CASP1; enzyme activity, inhibitor).
`CCCCCC(O)/C=C/C=O` (stereo not shown): “probe labelling ratio” 0.59 (Argininosuccinate synthase (ASS1, Homo sapiens, UniProt P00966); acylphosphate-ATP probe SILAC-ABPP; ZAK-transfected HEK293T; 100 µM, together with: acylphosphate-ATP probe; relative to: DMSO over compound-treated).
The Kd of `CCCNC(=O)CN1CCCN(C(=O)CN2CCCN(Cc3cccc4cnccc34)CC2)CC1` is reported as 38 µM (T1, ssRNA, hairpin with 1x1 G/G internal loops (Homo sapiens); BLI).
`COc1cc(-c2cn(C)c(=O)c3cnccc23)cc(OC)c1CN(C)C` gave a ΔTm of 1 °C (CREB-binding protein (CREBBP, Homo sapiens, UniProt Q92793)).
With `CCCCCCCCCCCCCCCC(=O)NCCCC[C@H](NC(=O)[C@H](CCC(=O)O)NC(=O)[C@H](Cc1ccc(O)cc1)NC(=O)[C@H](CCC(=O)O)NC(=O)COCC(=O)NCCCOCCOCCOCCCNC(=O)[C@H](Cc1c[nH]c2ccccc12)NC(=O)[C@H](CCCCN)NC(=O)[C@H](C)NC(=O)[C@H](CCCCNC(=N)N)NC(=O)[C@H](CCC(N)=O)NC(=O)[C@H](Cc1c[nH]cn1)NC(=O)[C@H](CCSC)NC(=O)[C@H](CC(C)C)NC(=O)[C@H](CCC(N)=O)NC(=O)[C@@H](NC(=O)[C@H](CCC(=O)O)NC(=O)C(C)(C)NC(=O)[C@@H](NC(=O)C(C)(C)N)C(C)C)[C@@H](C)CC)C(=O)N[C@@H](CCC(=O)O)C(=O)N[C@@H](Cc1ccc(O)cc1)C(=O)N[C@@H](CCC(=O)O)C(N)=O` the Hill coefficient was 1.44 (Parathyroid hormone/parathyroid hormone-related peptide receptor (PTH1R, Homo sapiens, UniProt Q03431); cAMP production, agonist, GloSensor; SGS-72).
`CCCCCCCC/C=C\CCCCCCCC(=O)NCCO` has a Hill coefficient of 1.46 ± 0.27 (Transient receptor potential cation channel subfamily V member 1 (Trpv1, Mus musculus, UniProt Q704Y3); ion current, agonist, whole-cell patch clamp; HEK293).
For `CCN1CCN(Cc2ccc(C(=O)Nc3ccc(C)c(NCc4cnc5[nH]ccc5c4OC)c3)cc2C(F)(F)F)CC1`, the remaining binding was 0.45% (ABL1 phosphorylated; binding, competition with immobilised ligand; 1 µM).
Under “normalized kinase activity”, `C#CCOC(=O)[C@]1(C)C=C(C(=O)OC(C)(C)C)C(=O)CC1` is recorded as 1.03 (Mitogen-activated protein kinase 8 (MAPK8, Homo sapiens, UniProt P45983); enzyme activity, D-SENSOR; 0.5487 µM, mean of replicates).
`O=C(N[C@@H](Cc1ccc(OCCCCC2CCNCC2)cc1)C(=O)O)c1nc2ccccc2o1.O=C(O)C(F)(F)F` gave a fibrinogen binding of 0.88 (Integrin alpha-IIb/beta-3 (Homo sapiens, UniProt P05106+P08514); inhibitor, flow cytometry; washed platelets, human; 15 nM, together with: ADP and Alexa647-fibrinogen; relative to: untreated).
The koff of `Clc1ccc(OCc2nn3c(-c4ccccn4)nnc3s2)cc1` is reported as 0.0139 ± 0.0154 s⁻¹ (Heat shock protein HSP 90-alpha, N-terminal domain (HSP90AA1, Homo sapiens, UniProt P07900); SPR, two-state model; N-terminal domain).
`CNC(=O)C1CCN(c2cc(C)c(F)cc2NC(=O)c2ccc(-c3cc(O)ccc3C)c(C)c2)CC1` has a remaining binding of 25% (ABL1 phosphorylated; binding, competition with immobilised ligand; 1 µM).
`COc1ccccc1-c1ccncc1C(=O)Nc1ccc(OCc2ccc(Cl)cc2)nn1` gave a remaining activity of 97% (DNA polymerase theta, helicase domain (POLQ, Homo sapiens, UniProt O75417); ATPase activity, ADP-Glo; 0.24 µM; relative to: 0 µM cpd).
For `C#CCCCC(=O)NCC1CN(CCCCCNC(=O)CN(CCN)C(=O)Cn2cnc3c(=O)[nH]c(N)nc32)CCN(CCCCCNC(=O)CN(CCN)C(=O)Cn2cnc3c(=O)[nH]c(N)nc32)CCN(CCCCCNC(=O)CN(CCN)C(=O)Cn2cnc3c(=O)[nH]c(N)nc32)CCN1CCCCCNC(=O)CN(CCN)C(=O)Cn1cnc2c(=O)[nH]c(N)nc21` (stereo not shown), “change in melting temperature” read 10.3 °C (T2, G-quadruplex RNA, G-quadruplex (Homo sapiens); FRET melting).
The remaining binding of `COc1cc(Nc2nccc(-c3cnn4nc(OC)ccc34)n2)cc(C(F)(F)F)c1` is reported as 96% (Mast/stem cell growth factor receptor Kit, autoinhibited (KIT, Homo sapiens, UniProt P10721); binding, competition with immobilised ligand; 1 µM).
The kon of `CC[C@H](C)[C@@H]1NC(=O)[C@H](CC(C)C)NC(=O)[C@H](CCC(=O)O)NC(=O)[C@H](CC(=O)O)NC(=O)[C@H](CCCNC(=N)N)NC(=O)[C@H](Cc2c[nH]c3ccccc23)NC(=O)[C@H](Cc2ccccc2)NC(=O)[C@H](CC(C)C)NC(=O)[C@H](CC(C)C)NC(=O)[C@H](Cc2ccc(O)cc2)NC(=O)CSC[C@@H](C(=O)NCC(=O)N[C@@H](CO)C(=O)N[C@@H](CCC(=O)O)C(=O)N[C@@H](CCCNC(=N)N)C(N)=O)NC(=O)[C@H](CC(C)C)NC(=O)[C@H](CC(C)C)NC1=O` is reported as 3.92e+06 M⁻¹ s⁻¹ (Induced myeloid leukemia cell differentiation protein Mcl-1 (MCL1, Homo sapiens, UniProt Q07820); binding, SPR; pH 7.4).
`CC(C)Oc1cc(Cl)ccc1CNc1cc(-c2ccccc2)nc2ncnn12` gave a cAMP luminescence of 1860 a.u. (G-protein coupled receptor 3 (GPR3, Homo sapiens, UniProt P46089, L128A); cAMP level, cAMP GloSensor; 30 µM; higher = more cAMP).
For `COC(=O)c1cc2cc3c(cc2oc1=O)N(CC(=O)NC(Cc1ccc(C)cc1)C(=O)NCC=CS(=O)(=O)c1ccccc1)CCC3` (stereo not shown), the kinact/Ki was 12000 M⁻¹ s⁻¹ (Procathepsin L (CTSL, Homo sapiens, UniProt P07711); inhibitor; together with: Z-Phe-Arg-pNA).
`CC(=O)NCCC(=O)Nc1ccccc1OCC1CC1` — result for IC50: “inactive” (Rhomboid protease AarA; enzyme activity, inhibitor, fluorogenic peptide substrate).
`CSCC[C@H](NC(=O)[C@H](CCC(N)=O)NC(=O)[C@H](CCCCN)NC(=O)[C@H](CCCNC(=N)N)NC(=O)[C@H](Cc1ccc(O)cc1)NC(=O)[C@H](CCCNC(=N)N)NC(=O)[C@H](CO)NC(=O)[C@H](Cc1ccc(O)cc1)NC(=O)[C@H](CO)NC(=O)[C@H](CC(=O)O)NC(=O)[C@@H](NC(=O)[C@@H](N)Cc1ccccc1)[C@@H](C)O)C(=O)N[C@@H](C)C(=O)N[C@H](C(=O)N[C@@H](CCCCN)C(=O)N[C@@H](CCCCn1cc(C[C@H](NC(=O)CNC(=O)[C@H](CO)NC(=O)[C@H](CCCNC(=N)N)NC(=O)[C@H](CO)NC(=O)[C@H](CC(C)C)NC(=O)[C@H](CC(C)C)NC(=O)CNC(=O)[C@H](C)NC(=O)[C@H](CC(C)C)NC(=O)[C@H](CCCNC(=N)N)NC(=O)[C@H](Cc2c[nH]cn2)NC(=O)[C@@H](NC(=O)[C@@H](N)C(C)C)[C@@H](C)O)C(=O)N[C@H](C(=O)N[C@H](C(=O)N[C@@H](CCCCN)C(=O)N[C@@H](CC(N)=O)C(=O)N[C@@H](CC(N)=O)C(=O)N[C@@H](Cc2ccccc2)C(=O)N[C@H](C(=O)N2CCC[C@H]2C(=O)N[C@H](C(=O)N[C@@H](CC(N)=O)C(=O)N[C@H](C(=O)NCC(=O)N[C@@H](CO)C(=O)N[C@@H](CCCCN)C(=O)N[C@@H](C)C(=O)N[C@@H](Cc2ccccc2)C(N)=O)C(C)C)[C@@H](C)O)C(C)C)C(C)C)C(C)C)nn1)C(=O)N[C@@H](Cc1ccc(O)cc1)C(=O)N[C@@H](CC(C)C)C(=O)N[C@@H](C)C(=O)N[C@@H](C)C(=O)N[C@H](C(=O)N[C@@H](CC(C)C)C(=O)NCC(=O)N[C@@H](CCCCN)C(=O)N[C@@H](CCCNC(=N)N)C(=O)N[C@@H](Cc1ccc(O)cc1)C(=O)N[C@@H](CCCCN)C(=O)N[C@@H](CCC(N)=O)C(=O)N[C@@H](CCCNC(=N)N)C(=O)N[C@H](C(=O)N[C@@H](CCCCN)C(=O)N[C@@H](CC(N)=O)C(=O)N[C@@H](CCCCN)C(N)=O)C(C)C)C(C)C)C(C)C` has an A2 of 646 nM (Vasoactive intestinal polypeptide receptor 2 (VIPR2, Homo sapiens, UniProt P41587); cAMP accumulation, antagonist; transfected COS-7 cells; second quantifiable antagonism, together with: PACAP-38 agonist).
With `CC(=O)N[C@@H](CCC(C)C)C(=O)N[C@@H](CCCC(=O)O)C(=O)N[C@@H](CO)C(=O)N[C@@H](CC(=O)O)C(=O)COC(=O)c1c(C)cccc1C` the kinact/KI was 897000 M⁻¹ s⁻¹ (CASP1; enzyme activity, inhibitor).
`N=C(N)NCCS(=O)(=O)O` gave a fraction bound of 0 (Sodium- and chloride-dependent taurine transporter (SLC6A6, Homo sapiens, UniProt P31641, Y138A); binding, microscale thermophoresis; 40 nM, fitted curve; higher = more binding).

Some of these lines once more:
The koff of `Clc1ccc(OCc2nn3c(-c4ccccn4)nnc3s2)cc1` is reported as 0.0139 ± 0.0154 s⁻¹ (Heat shock protein HSP 90-alpha, N-terminal domain (HSP90AA1, Homo sapiens, UniProt P07900); SPR, two-state model; N-terminal domain).
For `CC(C)[C@@H]1NC(=O)[C@H](Cc2ccccc2)NC(=O)CSC[C@@H](C(N)=O)NC(=O)[C@H](CCC(=O)O)NC(=O)[C@H](CO)NC(=O)[C@H](Cc2c[nH]c3cccc(Cl)c23)NC(=O)[C@H](C2CCCCC2)NC(=O)[C@H](C(C)C)NC(=O)[C@H](Cc2ccc(O)cc2)NC(=O)[C@H](CC(=O)O)NC(=O)[C@H](Cc2c[nH]c3ccccc23)NC(=O)[C@H](Cc2ccc(N)nc2)NC(=O)[C@H](Cc2c[nH]c3ccc(Cl)cc23)NC(=O)[C@H](CCC(=O)O)NC1=O`, the remaining activity was 2.78% (Interleukin-1 receptor-like 2 (IL1RL2, Homo sapiens, UniProt Q9HB29); IL-8 release, antagonist; A-431; 100 µM, 18 h, together with: IL-36 10 ng/mL; relative to: untreated).
